Measured values collected from several papers.
A part holds a random share of what one study measured.

Set 1 — technique: RNA Bind-n-Seq; molecule type: RNA; sample: in vitro; tested at: 365 nM; baseline: no-protein control; direction: higher = stronger binding
Target: RNA binding protein fox-1 homolog 2, RRM domain, GST-SBP tag (RBFOX2, Homo sapiens, UniProt O43251-10, residues 100-194)
Notes: natural RNA segment, single round, ends assumed
Constant ends, left off below: GGGAGUUCUACAGUCCGACGAUC … UGGAAUUCUCGGGUGCCAA
Target sequence (chain): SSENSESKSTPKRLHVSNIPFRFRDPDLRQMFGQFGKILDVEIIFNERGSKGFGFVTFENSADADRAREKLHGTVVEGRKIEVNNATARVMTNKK
Oligonucleotide | RBNS enrichment (R)
UUUGUGUCUGUGACUCUUGUCUUCAUGGAGAUUCCAUUCUGACCCACUUCCUCAUGUCUAAACUGAAGGUGGGGUGUUUUUUUGUUGUUGUUGGUUUGGUUUGGUUUUGG | 2
GAGGGUCAAAUAUUUAGUGCAUUUUAUAGAAGUGUAAAUUAUUUAAAUCUUAUGUGGAUUCUUUUAUUUUUUCCUUAAACUUCUUAGUGUUUCUGAAACUUCUAAAAAAG | 0.77
GGCAGCUGCUGACUCAACUCUGGGCUCCCUGCCAUCUGUGGAGUACUUUUUUCCUGUUGUGUUGAAUACUGGAGAAAUAGAAGGUUCAAGAUAGAGGCAGACCUGACUGU | 0.406
CUCCGGCUUCUGAGACAGAGCAAGUACUUCAGCAGUCCUGCUGCUCUUGCUCUGAGCUACAAUCAUGGCUUCUCAUGUUACUUACCAAGUGAGAGUUUUGGUUAGUAAUC | 0.241
CUGCUUCUGUAACCAAGGUCUGGCAGAGUAGCGAUUCCCUGCGUGUUCAGGAAGGGCCCAUUGUGUAUACCUGCCUCUUGUCACUGGCUUGGUGCCAGUCCCUCAGUCCC | 0.715
UAUUCUGGGAAUGUAUAGUAUUUGAAAACAGAAAUUGGUACCUUGCACACAUCAUCUGUAAGCUGUUUGGUUUUAAAAUACUGUAGAUAAUUAACCAAGGUAGAAUGACC | 0.389
UAAAGAAAGCAAAAGUUAAUUCAACUGAUCCACCAAUGGAAUUAGAUGGGUAGAGUUGGGUUCUUGAGUUUUACCACCACUUAGUUCCCACUGAAUUUUGUAACUUCCUG | 0.446
GAAUAUACUGAAGACAAAGCCUGCGUGAUUAGUUAGAACCGAUGAAUACAGCGUCAGAAGGAUGCCAUAACCAUUCUGUUCCUUUACAGAACUAAAUUGCCGCAGACAGG | 0.57

Set 2 — technique: aptamer microarray, sandwich; molecule type: DNA with 2'F-ANA; sample: in vitro; tested at: 200 nM; with: Cy3 exosite-II aptamer, 400 nM; direction: higher = stronger binding; oligonucleotide: GGTTGGTGTGGTTGG
Target: Prothrombin, mature alpha-thrombin (F2, Homo sapiens, UniProt P00734)
Notes: whole 15-mer aptamer, many near background
Modification | mean fluorescence intensity
2'F-ANA at 4 5 6 7 10 11 13 14 | 51.8 a.u.
2'F-ANA at 2 3 4 5 8 9 10 13 14 15 | 93.5 a.u.
2'F-ANA at 1 2 3 5 6 7 11 12 13 15 | 72.3 a.u.
2'F-ANA at 3 4 7 8 10 12 14 | 207 a.u.
2'F-ANA at 2 3 5 6 7 10 14 | 101 a.u.
2'F-ANA at 1 2 5 7 8 10 12 | 48.4 a.u.
2'F-ANA at 3 5 6 7 8 9 12 | 297 a.u.
2'F-ANA at 2 6 7 9 11 12 13 15 | 343 a.u.
2'F-ANA at 1 4 5 9 10 11 12 13 14 | 47.8 a.u.
2'F-ANA at 1 2 3 5 6 7 8 10 11 12 13 14 15 | 51.3 a.u.
2'F-ANA at 1 2 4 10 14 15 | 48.3 a.u.
2'F-ANA at 2 4 7 11 13 15 | 237 a.u.
2'F-ANA at 1 2 3 5 8 11 12 14 | 46.9 a.u.
2'F-ANA at 1 2 3 4 5 8 9 11 13 14 15 | 50.7 a.u.
2'F-ANA at 2 3 4 7 9 12 | 863 a.u.
2'F-ANA at 1 5 6 7 11 12 13 | 68.5 a.u.
2'F-ANA at 3 7 8 9 10 11 12 13 14 | 436 a.u.
2'F-ANA at 6 7 14 15 | 186 a.u.
2'F-ANA at 1 3 6 11 13 15 | 195 a.u.
2'F-ANA at 3 5 6 7 9 10 11 12 13 | 57.4 a.u.
2'F-ANA at 2 6 7 9 10 | 137 a.u.
2'F-ANA at 2 3 4 6 7 11 12 14 15 | 233 a.u.
2'F-ANA at 1 2 5 6 7 10 12 13 | 47.9 a.u.
2'F-ANA at 1 2 5 7 8 | 62.1 a.u.
2'F-ANA at 4 6 9 11 | 209 a.u.

Set 3 — technique: protein binding microarray; molecule type: double-stranded DNA, one strand shown; sample: in vitro; tested at: not given; baseline: not given; direction: higher = stronger binding
Target: Histone acetyltransferase KAT6A, winged helix 2, GST fusion (KAT6A, Homo sapiens, UniProt Q92794, residues 85-181)
Notes: 8-mer, flanks averaged, mean of 2 arrays, mostly near background
Construct (chain): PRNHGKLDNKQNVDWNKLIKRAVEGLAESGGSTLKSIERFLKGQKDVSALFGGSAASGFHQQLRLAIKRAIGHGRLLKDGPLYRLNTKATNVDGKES
Oligonucleotide | E-score
GTAGGCGA | 0.0682
GCCACTAA | 0.0558
CTACGCCC | 0.0561
AGTAATAA | -0.0217
GAACTCAC | 0.0945
GGTTTTCA | 0.105
CACCATAA | -0.107
AATTCTGA | 0.0804
AAATGGCA | 0.127
TAAATGCA | -0.0658
GTGTATGA | -0.0537
AAAGGAGC | 0.0559
GCCTGGCC | 0.154
CTCCGCGC | 0.172
AGACTCTG | -0.0659
TGCGCAAA | 0.0964
GGAACCTA | -0.0147
CATCTGGG | 0.0085
AGTTCGAG | -0.0174
AACGGATT | 0.113
ACAATCCT | -0.0556
ATCCAAAA | 0.131
AAATACGC | 0.0122

Set 4 — technique: EMSA with sequencing; molecule type: double-stranded DNA, one strand shown; sample: in vitro; tested at: 10 and 20 nM; baseline: negative control set to 0; direction: higher = stronger binding
Target: Hepatocyte nuclear factor 3-alpha (Foxa1, Mus musculus, UniProt P35582, residues 1-468, full length assumed)
UniProt P35582, sequence (whole entry, looked up): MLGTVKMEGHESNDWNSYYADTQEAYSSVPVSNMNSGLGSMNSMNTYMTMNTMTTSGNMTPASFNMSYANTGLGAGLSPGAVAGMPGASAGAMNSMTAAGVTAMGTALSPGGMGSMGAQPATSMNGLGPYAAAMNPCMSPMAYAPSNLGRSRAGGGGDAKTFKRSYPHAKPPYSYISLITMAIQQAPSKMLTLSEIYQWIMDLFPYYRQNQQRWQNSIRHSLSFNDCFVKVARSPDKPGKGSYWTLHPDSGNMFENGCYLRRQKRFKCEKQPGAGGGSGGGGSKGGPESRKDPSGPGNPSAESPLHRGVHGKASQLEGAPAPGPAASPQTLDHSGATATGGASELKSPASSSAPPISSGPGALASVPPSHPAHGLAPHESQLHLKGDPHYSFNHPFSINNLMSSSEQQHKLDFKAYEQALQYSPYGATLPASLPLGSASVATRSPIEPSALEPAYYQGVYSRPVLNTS
Notes: whole designed probe, mean of two concentrations, ends assumed
Constant ends, left off below: GTGAGCGGTGCCCATTGATGGGGAAC … TTTCACTGGGATCGTGGGGAC
Oligonucleotide | normalised bound fraction [ratio]
GGGAATTTTTATATAATACCAACTAATGAGTGTAAAACAAAGAAACAAAAAGAAACCAGTCCACAGAAACCAGAGTTGAGGCATGTGACTCAGAGATGACTCTCAAGGTGATTACCCTGTGAAACTATGTACTGTTCTTGCATAACAATTTTTGGAATCTTTTGCTTTGAAATGCCTTCAGAATCAGTTCATG | 0.0167
TTAACATATCCTTACAATCAGTTTTACTTATAGAGATTTTTAGGATGACAGGGTGACCGAATTGTTGTGTTAGGTAAAATAAAGTCCATCTTGATGTTTACTCTGAATTTTAAAAAATATATTGAAACTTCACTCATGAAATAGTTGTTAATGATTTCCTATTCACTCTGAGAGATGTATCTATGTCAGTCAT | 0.156
AAATAAGAAGCACATGTTAACTATTTAAAGTGCCTGGGAGTGTGATTCTTAATAACAAGACCAGGTGACTGCTAACAAGCCCAGGTGAGAAAAGTAATCTAGCTATGACTCAAACCCAGTCTACCTATTGAATTACGAACTTGCTTCCGAAGAACCAGACAGAGAGTCCTAAACCGGTCAAAAGCAAAGCAGG | 0.0449
ATGAAGGGCTGCCAGTGTAATTTGAACCTCAAATAAACAACAGATAAAACTGTAGTATAAGTAATTGCACAACTGTCCCATATACGATCTTTTTGTTTGCCTAATCTGGCAAAGATATTGACTTAACACACACTAATCTGTTGACAGGTAGGTGAAATATTTGAACTTCTACGTTGCTTCTCTAATCCTGTCC | 0.391
CCACTACTTTCTTGGCCACCGCTTCCTGGAGCTTGTGTTCCTGGAAGCCAGCCATAAATAAGCCGGCCATAAACGAGGGTAAACAGGTGCCTGAGTAAACACACCAGAGCAAATGAGTCATATGGGCCGGCAGAGATGAACCTGGGGCCATGGCGGGTGTAGGGGTTGGGTGGGGAGAGGATGTCCTCTGAAA | 0.455

Set 5 — technique: RNA Bind-n-Seq; molecule type: RNA; sample: in vitro; tested at: 20 nM; notes: 6-mer, flanks averaged, single round; with: 150 mM KCl; baseline: input library; direction: higher = stronger binding
Target: TAR DNA-binding protein 43, full length, His tag (TARDBP, Homo sapiens, UniProt Q13148, residues 1-414)
Oligonucleotide | 6-mer enrichment (R)
AAGAAC | 0.762
UGUCAU | 0.611
UCUCAC | 0.545
UCUCCG | 0.605
AACACC | 0.66
CGACAC | 0.728
ACUACC | 0.589
UUUCGC | 0.593
ACCCCC | 0.671
CUGAGA | 0.797
UCUUCU | 0.542
CCAACU | 0.615
AGCGGG | 4.08
ACAAGU | 0.693
CUAUCG | 0.608
CUAGUC | 0.585
GCAUCA | 0.685

Excerpt of the above (set 3):
Oligonucleotide | E-score
GCCTGGCC | 0.154
CTCCGCGC | 0.172
AGACTCTG | -0.0659
TGCGCAAA | 0.0964
GGAACCTA | -0.0147
CATCTGGG | 0.0085
AGTTCGAG | -0.0174
AACGGATT | 0.113
ACAATCCT | -0.0556
